Measurements pooled from the literature.
Compare with care: the assays were run in different laboratories. Numbers after ± are the reported error.

For COc1ccc2c(c1)C(C)(C)C(/C=C/C1=C(Oc3ccc(C(=O)NCCCCOc4cc(CN(Cc5ccccn5)Cc5ccccn5)cc(CN(Cc5ccccn5)Cc5ccccn5)c4)cc3)C(=C/C=C3/N(CCCCS(=O)(=O)[O-])c4ccc(OC)cc4C3(C)C)CCC1)=[N+]2CCCCS(=O)(=O)[O-].O=[N+]([O-])[O-].O=[N+]([O-])[O-].[99Tc+].[C-]#[O+].[C-]#[O+].[C-]#[O+].[Zn+2], the tissue uptake was 2.36 %ID/g (healthy BALB/c mice, adrenals; 12 h, group mean).
The tissue uptake of O=C(NCC1OC2CCC=CCCC2O1)c1ccc([18F])nc1 (stereo not drawn) is reported as 9.9 ± 1.2 %ID/g (healthy female BALB/c nude mice, small intestine; intravenous, 7.4 MBq per mouse, 2 min).
CCCC[C@H](NC(=O)COCCOCCNC(=O)CN1CCN(CC(=O)O)CCN(CC(=O)O)CC1)C(=O)N[C@H]1CC(=O)NCCCC[C@@H](C(N)=O)NC(=O)[C@H](Cc2c[nH]c3ccccc23)NC(=O)[C@H](CCCNC(=N)N)NC(=O)[C@@H](Cc2ccccc2)NC(=O)[C@H](Cc2c[nH]cn2)NC1=O [fluorine-18 labelled] has a tissue uptake of 0.07 ± 0.02 %ID/g (C57 mice B16-F10 melanoma, brain; intravenous, 0.37 MBq, 1 h).
With CC(C)C[C@H](NC(=O)[C@@H](CCCCNC(=O)[C@@H](Cc1ccccc1)NC(=O)CCCCCCCNC(=O)CN1CCN(CC(=O)O)CCN(CC(=O)O)CCN(CC(=O)O)CC1)NC(=O)[C@H](Cc1ccc(O)cc1)NC(=O)[C@H](CO)NC(=O)[C@H](Cc1c[nH]c2ccccc12)NC(=O)[C@H](Cc1c[nH]cn1)NC(=O)[C@@H]1CCC(=O)N1)C(=O)N[C@@H](CCCNC(=N)N)C(=O)N1CCC[C@H]1C(=O)NCC(N)=O [indium-111 labelled] the tissue uptake was 0.67 ± 0.16 %ID/g (biodistribution; male athymic nude mice, DU-145 prostate cancer xenograft, spleen; intravenous, 0.037 MBq, 0.5 h post-injection).
O=C([O-])CN1CCN(CC(=O)[O-])CCN(CC(=O)NC[C@H]2CC[C@H](C(=O)N[C@H](Cc3cnc4ccccc4c3)C(=O)NCCCC[C@H](NC(=O)N[C@@H](CCC(=O)O)C(=O)O)C(=O)O)CC2)CCN(CC(=O)[O-])CC1.[64Cu+2] has a tissue uptake of 1.31 %ID/g (ex vivo gamma counting; 22Rv1 tumour-bearing mice, muscle; intravenous, 0.74 MBq, 2 h post-injection).
The tissue uptake of Cc1cc(C)n(CCN(CCN)CCCCCCNC(=O)[C@@H](N)Cc2c[nH]c3ccccc23)n1.[99Tc+].[C-]#[O+].[C-]#[O+].[C-]#[O+] is reported as 0.5 ± 0.08 %IA/g (BALB/c nude mice, A549 xenograft, pancreas; intravenous, 4 h).
COc1ccc(Nc2nc(Nc3ccc(OCCOCCOCC[18F])cc3)ncc2Br)cc1 has a tissue uptake of 1.47 ± 0.13 %ID/g (ICR mice, S180 tumour-bearing, spleen; intravenous, 370 kBq, 30 min).
CCCC[C@H](NC(=O)CNC(=O)CNC(=O)[C@H](CCCCNC(=O)[C@H](CC(=O)O)NC(=O)C(C)c1ccc(CC(C)C)cc1)NC(=O)CN1CCN(CC(=O)O)CCN(CC(=O)O)CCN(CC(=O)O)CC1)C(=O)N[C@H]1CC(=O)NCCCC[C@@H](C(N)=O)NC(=O)[C@H](Cc2c[nH]c3ccccc23)NC(=O)[C@H](CCCNC(=N)N)NC(=O)[C@@H](Cc2ccccc2)NC(=O)[C@H](Cc2c[nH]cn2)NC1=O (stereo partly drawn) [lutetium-177 labelled] gave a tissue uptake of 4.37 ± 0.57 %ID/g (C57 mice, tumour-bearing, skin; intravenous, 0.037 MBq, 0.5 h).
With N#C[C@@H]1CCCN1C(=O)CNC(=O)c1ccnc2ccc(OCCCN3CCN(C(=O)CCc4ccc5c(c4)CN4CCN6CC(=O)[O][68Ga-]([O]C(=O)C4)([O]5)[O]c4ccc(CCC(=O)N5CCN(CCCOc7ccc8nccc(C(=O)NCC(=O)N9CCC[C@H]9C#N)c8c7)CC5)cc4C6)CC3)cc12 the tissue uptake was 1.45 ± 0.98 %ID/g (BALB/c nude mice, U-87 MG xenograft, pancreas; 1 h, blocking, with: DOTA-FAPI-04 40 nmol/mouse co-injected).

Repeated from above:
With N#C[C@@H]1CCCN1C(=O)CNC(=O)c1ccnc2ccc(OCCCN3CCN(C(=O)CCc4ccc5c(c4)CN4CCN6CC(=O)[O][68Ga-]([O]C(=O)C4)([O]5)[O]c4ccc(CCC(=O)N5CCN(CCCOc7ccc8nccc(C(=O)NCC(=O)N9CCC[C@H]9C#N)c8c7)CC5)cc4C6)CC3)cc12 the tissue uptake was 1.45 ± 0.98 %ID/g (BALB/c nude mice, U-87 MG xenograft, pancreas; 1 h, blocking, with: DOTA-FAPI-04 40 nmol/mouse co-injected).
